Published values pooled from the literature.
Parts stem from different laboratories: compare values within a part only.
UniProt P06239, sequence (whole entry, looked up): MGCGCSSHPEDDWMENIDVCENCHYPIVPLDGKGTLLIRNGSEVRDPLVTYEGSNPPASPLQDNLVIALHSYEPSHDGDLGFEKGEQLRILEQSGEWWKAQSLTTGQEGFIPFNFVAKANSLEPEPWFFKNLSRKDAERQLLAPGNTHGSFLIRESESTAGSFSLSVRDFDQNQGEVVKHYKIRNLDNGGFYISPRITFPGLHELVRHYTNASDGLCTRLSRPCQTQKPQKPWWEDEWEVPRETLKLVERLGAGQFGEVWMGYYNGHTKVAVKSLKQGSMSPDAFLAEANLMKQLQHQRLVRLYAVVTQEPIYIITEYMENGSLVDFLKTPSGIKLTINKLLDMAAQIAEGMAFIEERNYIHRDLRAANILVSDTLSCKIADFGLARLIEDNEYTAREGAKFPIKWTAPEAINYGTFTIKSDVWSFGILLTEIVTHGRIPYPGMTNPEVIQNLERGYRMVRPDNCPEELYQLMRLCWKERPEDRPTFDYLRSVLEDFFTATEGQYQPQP
UniProt O96017, sequence (whole entry, looked up): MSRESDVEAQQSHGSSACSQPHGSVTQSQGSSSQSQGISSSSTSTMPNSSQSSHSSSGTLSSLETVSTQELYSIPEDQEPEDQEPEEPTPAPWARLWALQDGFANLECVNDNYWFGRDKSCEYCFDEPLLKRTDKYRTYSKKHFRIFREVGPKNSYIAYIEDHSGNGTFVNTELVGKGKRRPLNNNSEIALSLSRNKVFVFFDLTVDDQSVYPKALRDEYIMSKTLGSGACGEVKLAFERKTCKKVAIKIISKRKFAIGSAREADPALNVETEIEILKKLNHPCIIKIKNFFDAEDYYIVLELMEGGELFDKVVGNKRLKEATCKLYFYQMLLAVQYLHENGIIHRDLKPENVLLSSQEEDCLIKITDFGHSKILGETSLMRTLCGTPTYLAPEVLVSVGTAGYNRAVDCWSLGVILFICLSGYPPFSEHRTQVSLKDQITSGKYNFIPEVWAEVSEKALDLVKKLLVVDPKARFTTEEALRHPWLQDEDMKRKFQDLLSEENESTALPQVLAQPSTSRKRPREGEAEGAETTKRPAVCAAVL
UniProt P04049, sequence (whole entry, looked up): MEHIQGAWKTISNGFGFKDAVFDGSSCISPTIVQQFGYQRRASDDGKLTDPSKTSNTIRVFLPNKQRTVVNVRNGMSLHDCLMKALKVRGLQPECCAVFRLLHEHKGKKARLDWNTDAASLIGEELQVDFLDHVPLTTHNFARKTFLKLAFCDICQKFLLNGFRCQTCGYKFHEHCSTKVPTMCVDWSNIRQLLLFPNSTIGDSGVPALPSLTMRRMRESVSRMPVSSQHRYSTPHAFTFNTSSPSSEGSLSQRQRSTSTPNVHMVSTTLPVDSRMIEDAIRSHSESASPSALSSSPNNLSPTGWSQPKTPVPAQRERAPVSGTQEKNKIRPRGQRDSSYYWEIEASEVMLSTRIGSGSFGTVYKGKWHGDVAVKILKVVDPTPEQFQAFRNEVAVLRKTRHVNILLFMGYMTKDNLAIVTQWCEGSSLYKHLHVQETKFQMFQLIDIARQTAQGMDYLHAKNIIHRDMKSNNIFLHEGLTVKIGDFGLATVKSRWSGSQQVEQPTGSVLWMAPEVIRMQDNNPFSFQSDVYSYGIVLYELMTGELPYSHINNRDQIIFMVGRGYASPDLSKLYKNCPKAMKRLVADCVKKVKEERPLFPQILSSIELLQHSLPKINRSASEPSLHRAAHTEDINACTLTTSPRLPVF
UniProt Q02750, sequence (whole entry, looked up): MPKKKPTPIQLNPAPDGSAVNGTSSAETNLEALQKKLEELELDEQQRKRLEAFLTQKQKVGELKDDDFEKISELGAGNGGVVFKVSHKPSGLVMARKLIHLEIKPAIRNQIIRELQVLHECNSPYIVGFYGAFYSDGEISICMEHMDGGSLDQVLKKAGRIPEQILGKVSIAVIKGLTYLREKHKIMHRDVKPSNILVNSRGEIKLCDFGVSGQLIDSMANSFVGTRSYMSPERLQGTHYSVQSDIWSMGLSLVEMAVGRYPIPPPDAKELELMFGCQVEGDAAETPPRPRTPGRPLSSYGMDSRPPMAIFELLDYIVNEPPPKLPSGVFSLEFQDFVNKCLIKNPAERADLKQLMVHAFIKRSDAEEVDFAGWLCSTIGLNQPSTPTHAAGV
UniProt Q00537, sequence (whole entry, looked up): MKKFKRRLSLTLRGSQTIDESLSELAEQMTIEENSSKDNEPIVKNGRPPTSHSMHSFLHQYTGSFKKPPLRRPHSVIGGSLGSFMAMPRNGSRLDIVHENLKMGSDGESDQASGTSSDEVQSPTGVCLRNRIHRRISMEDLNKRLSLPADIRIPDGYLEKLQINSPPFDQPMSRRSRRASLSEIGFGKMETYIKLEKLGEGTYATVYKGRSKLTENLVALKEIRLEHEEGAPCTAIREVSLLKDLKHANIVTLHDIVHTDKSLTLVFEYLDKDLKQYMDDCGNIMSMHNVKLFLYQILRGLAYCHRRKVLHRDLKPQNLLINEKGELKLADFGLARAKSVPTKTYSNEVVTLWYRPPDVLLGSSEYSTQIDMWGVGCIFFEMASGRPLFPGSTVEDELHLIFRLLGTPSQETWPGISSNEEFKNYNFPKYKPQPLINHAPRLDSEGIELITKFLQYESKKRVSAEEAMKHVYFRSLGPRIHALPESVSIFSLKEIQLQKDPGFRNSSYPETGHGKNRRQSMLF

Series 1 — effect on: cell-free assay; technique: competition with immobilised ligand; tested at: 0.1 µM; endpoint: remaining binding
SMILES: Cc1c[nH]c2nccc(Oc3c(F)cc(Nc4cc(Cl)nc(N)n4)cc3F)c12
CHEK2 (Homo sapiens, UniProt O96017): 89%
LYN (Homo sapiens, UniProt P07948): 81%
LCK (Homo sapiens, UniProt P06239): 100%
CIT (Homo sapiens, UniProt O14578): 100%
PDPK1 (Homo sapiens, UniProt O15530): 100%
STK3 (Homo sapiens, UniProt Q13188): 69%
MTOR (Homo sapiens, UniProt P42345): 85%
IRAK4 (Homo sapiens, UniProt Q9NWZ3): 85%
CDK17 (Homo sapiens, UniProt Q00537): 81%
CHEK1 (Homo sapiens, UniProt O14757): 100%
FLT3 (Homo sapiens, UniProt P36888, ITD): 97%
KIT (Homo sapiens, UniProt P10721, V559D/V654A): 94%
Tyrosine-protein kinase ABL1, non-phosphorylated (ABL1, Homo sapiens, UniProt P00519, H396P): 82%
PRKACA (Homo sapiens, UniProt P17612): 28%
MAPK1 (Homo sapiens, UniProt P28482): 99%
RIOK3 (Homo sapiens, UniProt O14730): 93%
RAF1 (Homo sapiens, UniProt P04049): 75%
OXSR1 (Homo sapiens, UniProt O95747): 92%
GRK3 (Homo sapiens, UniProt P35626): 78%
PLK1 (Homo sapiens, UniProt P53350): 75%
Tyrosine-protein kinase ABL1, phosphorylated (ABL1, Homo sapiens, UniProt P00519, M351T): 83%
Receptor-type tyrosine-protein kinase FLT3, autoinhibited (FLT3, Homo sapiens, UniProt P36888): 75%
MAP2K1 (Homo sapiens, UniProt Q02750): 81%
CDK15 (Homo sapiens, UniProt Q96Q40): 76%
CSNK1G2 (Homo sapiens, UniProt P78368): 94%

Series 2 — effect on: enzyme activity; action: inhibitor; tested at: 10 µM; endpoint: inhibition
Target: Calcium/calmodulin-dependent protein kinase type II subunit alpha (CAMK2A, Homo sapiens, UniProt Q9UQM7)
UniProt Q9UQM7, sequence (whole entry, looked up): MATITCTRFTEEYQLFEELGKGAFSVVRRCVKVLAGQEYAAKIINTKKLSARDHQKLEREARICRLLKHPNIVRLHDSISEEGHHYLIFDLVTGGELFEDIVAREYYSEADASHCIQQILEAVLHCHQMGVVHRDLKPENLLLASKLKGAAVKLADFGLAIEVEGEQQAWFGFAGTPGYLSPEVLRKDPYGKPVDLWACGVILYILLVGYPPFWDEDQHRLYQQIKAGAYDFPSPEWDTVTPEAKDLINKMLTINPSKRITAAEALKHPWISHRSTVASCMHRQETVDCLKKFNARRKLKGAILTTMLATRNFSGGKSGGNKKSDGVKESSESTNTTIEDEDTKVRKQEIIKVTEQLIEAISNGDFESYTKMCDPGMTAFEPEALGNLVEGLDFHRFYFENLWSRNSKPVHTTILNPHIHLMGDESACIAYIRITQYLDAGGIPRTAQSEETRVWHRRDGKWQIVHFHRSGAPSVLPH
COc1ccc2c(c1)OC(O)C(=O)N2O (centres unmarked): 6%
NCCCC(=O)O: 19%
C[C@@H]([C@H](C)O)[C@H](N)C(=O)O: 37%
C=C1CCN([C@H](C)[C@](O)(Cn2cncn2)c2ccc(F)cc2F)CC1: -8%
CC(C)=CCC/C(C)=C/C=O: 0%
COc1ccc2nccc(C(=O)O)c2c1: 17%
CCN(CC)c1ccc(C(=C2C=CC(=[N+](CC)CC)C=C2)c2cc(S(=O)(=O)O)ccc2S(=O)(=O)[O-])cc1: 18%
COc1cc2oc(-c3ccccc3)cc(=O)c2c(O)c1O: -9%
CC/C=C\C/C=C\C/C=C\C/C=C\C/C=C\CCCC(=O)O: -4%
Nc1ccc(NC(=O)c2ccc(C(F)(F)F)cc2)nc1: 5%
CC(C)C(=O)C(=O)O: -57%
CN1C[C@@H]2C[C@H]1CN2c1cc2c(cc1F)c(=O)c(C(=O)O)cn2C1CC1: 0%
OCCN1CCN(CCCN2c3ccccc3Sc3ccc(Cl)cc32)CC1: -7%
C[C@@H](CO[C@@H]1O[C@H](CO)[C@@H](O)[C@H](O)[C@H]1O)[C@@H]1CC[C@@]2(CC[C@]3(C)[C@H](CC[C@@H]4[C@@]5(C)CC[C@H](O[C@@H]6O[C@H](CO)[C@@H](O)[C@H](O)[C@H]6O[C@@H]6O[C@H](CO)[C@@H](O)[C@H](O)[C@H]6O)[C@@](C)(CO[C@@H]6O[C@H](CO)[C@@H](O)[C@H](O)[C@H]6O)[C@@H]5CC[C@]43C)[C@H]2O)CO1: -4%
C[C@H]1c2cccc(O)c2C(=O)C2=C(O)[C@]3(O)C(=O)C(C(N)=O)=C(O)[C@@H](N(C)C)[C@@H]3[C@@H](O)[C@@H]21: -8%
CCCCCCCCCCCCC/C=C/[C@@H](O)[C@@H](N)CO: -32%
O=C(O)CCNC(=O)c1ccccc1: -3%
CC(=O)O[C@H]1CC/C(C)=C/CC/C(C)=C/C[C@]2(C(C)C)CC[C@@]1(C)O2: -2%
CC(C)=CCC[C@](C)(O[C@@H]1O[C@H](CO[C@@H]2O[C@H](CO)[C@@H](O)[C@H](O)[C@H]2O)[C@@H](O)[C@H](O)[C@H]1O)[C@H]1CC[C@]2(C)[C@@H]1[C@H](O)C[C@@H]1[C@@]3(C)CC[C@H](O[C@@H]4O[C@H](CO)[C@@H](O)[C@H](O)[C@H]4O)C(C)(C)[C@@H]3CC[C@]12C: 45%
C=CCc1ccc(OC(C)=O)c(OC)c1: 9%
O=C(O)/C=C/c1cccc(O)c1: 3%

Series 3 — effect on: enzyme activity; action: inhibitor; tested at: 0.5 µM; relative to: control; endpoint: remaining activity
Target: Serine/threonine-protein kinase PAK 5 (PAK5, Homo sapiens, UniProt Q9P286)
UniProt Q9P286, sequence (whole entry, looked up): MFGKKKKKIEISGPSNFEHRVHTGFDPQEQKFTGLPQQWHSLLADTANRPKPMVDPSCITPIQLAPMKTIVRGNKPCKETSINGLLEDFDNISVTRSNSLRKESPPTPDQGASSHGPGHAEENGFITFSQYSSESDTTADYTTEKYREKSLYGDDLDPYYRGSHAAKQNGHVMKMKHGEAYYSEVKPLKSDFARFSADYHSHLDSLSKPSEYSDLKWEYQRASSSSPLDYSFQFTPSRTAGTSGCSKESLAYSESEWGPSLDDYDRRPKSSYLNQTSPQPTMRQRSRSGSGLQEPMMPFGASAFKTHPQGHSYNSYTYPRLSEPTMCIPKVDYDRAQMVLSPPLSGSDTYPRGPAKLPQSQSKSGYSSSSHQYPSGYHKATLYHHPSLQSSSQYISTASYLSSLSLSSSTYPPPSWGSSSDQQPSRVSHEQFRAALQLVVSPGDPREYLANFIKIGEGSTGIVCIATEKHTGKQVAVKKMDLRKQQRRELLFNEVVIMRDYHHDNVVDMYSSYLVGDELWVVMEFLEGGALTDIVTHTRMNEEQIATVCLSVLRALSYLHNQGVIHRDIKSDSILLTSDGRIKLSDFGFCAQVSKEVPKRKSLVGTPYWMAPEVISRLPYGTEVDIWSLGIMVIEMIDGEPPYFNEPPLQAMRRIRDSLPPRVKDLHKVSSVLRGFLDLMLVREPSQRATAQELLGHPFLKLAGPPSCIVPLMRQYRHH
CSc1nc(-c2ccnc(N[C@@H](C)c3ccccc3)c2)c(-c2ccc(F)cc2)[nH]1 (racemic): 85.3%
Cc1cncc2cccc(S(=O)(=O)N3CCCN(C(=O)CN)C[C@@H]3C)c12: 100%
Fc1ccc(-c2nc3n(c2-c2ccncc2)CCS3)cc1: 97.6%
O=C1NC(=O)C(c2c[nH]c3ccccc23)=C1c1c[nH]c2ccccc12: 104%
CC(=O)c1ccc(N2CCOCC2)cc1O: 102%
COc1ccc(S(=O)(=O)N(CCO)c2ccccc2CN(C)CC=Cc2ccc(Cl)cc2)cc1: 107%
CC#CC(=O)Nc1cc2c(Nc3ccc(F)c(Cl)c3)ncnc2cn1: 102%
Cc1ccc(NC2=CC(=O)c3sc(C)nc3C2=O)cc1: 77.4%
NC(=O)c1ccc(N(C(N)=O)c2c(F)cccc2F)nc1-c1ccc(F)cc1F: 96.4%
CC(C)(C)n1nc(Cc2cccc3ccccc23)c2c(N)ncnc21: 92.9%
O=C1Cc2c([nH]c3ccc([N+](=O)[O-])cc23)-c2ccccc2N1: 71.4%
CCCC(=O)Oc1ccc2[nH]c(C(=O)c3cc4ccccc4[nH]3)cc2c1: 91%

Series 4 — cell line: A-375; tested at: 100 µM; time: 36 h; endpoint: viability
C[C@@H](O[C@H]1OCCN(Cc2n[nH]c(=O)[nH]2)[C@H]1c1ccc(F)cc1)c1cc(C(F)(F)F)cc(C(F)(F)F)c1: 0.179%
CN(C)CCc1c[nH]c2ccc(CS(=O)(=O)N3CCCC3)cc12: 104%
CCN1CCCC1CNC(=O)c1cc(S(=O)(=O)CC)c(N)cc1OC (centres unmarked): 95%
Nc1ccccc1S(N)(=O)=O: 111%
Cc1cc(O)cc(C)c1Cl: 24.6%
CCCc1cc(C(N)=S)ccn1: 104%
N[C@@H](CC(=O)N1CCn2c(nnc2C(F)(F)F)C1)Cc1cc(F)c(F)cc1F: 101%
Nc1cc(N2CCCCC2)nc(N)[n+]1[O-]: 112%
CC1=C(C)C(=O)C(C(CCCCCC(=O)O)c2ccccc2)=C(C)C1=O (centres unmarked): 92.1%
COc1ccc(C(=O)NCc2ccc(OCCN(C)C)cc2)cc1OC: 76.7%
OC[C@H]1O[C@@H](Oc2ccc(O)cc2)[C@H](O)[C@@H](O)[C@@H]1O: 123%
C[C@@H]1O[C@@]2(CS1)CN1CCC2CC1: 108%
CC(C)(C)NCC(O)COc1cccc2c1C[C@H](O)[C@H](O)C2 (mixture of isomers): 104%
O=C(COc1ccc(Cl)cc1)N1CCN(Cc2ccc3c(c2)OCO3)CC1: 87.4%
CCN1CCN(Cc2ccc(Nc3ncc(F)c(-c4cc(F)c5nc(C)n(C(C)C)c5c4)n3)nc2)CC1: 104%
CC(=O)OCC(=O)[C@@]12OC3(CCCC3)O[C@@H]1C[C@H]1[C@@H]3CCC4=CC(=O)C=C[C@]4(C)[C@@]3(F)[C@@H](O)C[C@@]12C: 28.6%
Cc1cc(C(C)(C)C)c(O)c(C)c1CC1=NCCN1: 112%
CCN[C@H]1CN(CCCOC)S(=O)(=O)c2sc(S(N)(=O)=O)cc21: 108%
O=C(O)c1ccccc1OP(=O)(O)O: 113%
CNCC(O)c1ccc(OC(=O)C(C)(C)C)c(OC(=O)C(C)(C)C)c1 (centres unmarked): 64.6%
CCC(=O)NCC[C@@H]1CCc2ccc3c(c21)CCO3: 82.8%
Clc1ccc(C(Cn2ccnc2)OCc2ccc(Sc3ccccc3)cc2)c(Cl)c1 (centres unmarked): 3.46%

For quick reference, copied from above (series 4):
CCCc1cc(C(N)=S)ccn1: 104%
CCC(=O)NCC[C@@H]1CCc2ccc3c(c21)CCO3: 82.8%
CCN[C@H]1CN(CCCOC)S(=O)(=O)c2sc(S(N)(=O)=O)cc21: 108%
Nc1ccccc1S(N)(=O)=O: 111%
CN(C)CCc1c[nH]c2ccc(CS(=O)(=O)N3CCCC3)cc12: 104%
C[C@@H](O[C@H]1OCCN(Cc2n[nH]c(=O)[nH]2)[C@H]1c1ccc(F)cc1)c1cc(C(F)(F)F)cc(C(F)(F)F)c1: 0.179%
CC(=O)OCC(=O)[C@@]12OC3(CCCC3)O[C@@H]1C[C@H]1[C@@H]3CCC4=CC(=O)C=C[C@]4(C)[C@@]3(F)[C@@H](O)C[C@@]12C: 28.6%
